Measured values of several laboratories.
Protocols differ between the studies behind these lines. Numbers after ± are the reported error.
Cell line: Huh-7

`O[Si](CCCN1CCCCC1)(c1ccc(F)cc1)C1CCCCC1` (centres unmarked) has an IC50 of 61 µM (cell growth or viability; 72 h).
For `O=C(N[C@@H](Cc1ccccc1)C(=O)N[C@@H](C[C@@H]1CCNC1=O)C(O)S(=O)(=O)O)OCc1ccccc1` (some centres unmarked), the CC50 was 108 ± 10.4 µM (5 (unit not given)).
The IC50 of `Cc1ccn2c(-c3csc(Nc4ccccn4)n3)c(C)nc2c1` is reported as greater than 10 µM (cell growth or viability, ATP luminescence; 72 h).
For `CC1CCC(C(C)(C)C(=O)Nc2ccc(Oc3ccccc3)cc2)CC1` (centres unmarked), the IC50 was 29.2 µM (cell growth or viability; 72 h).
`CC(C)CC(NC(=O)OCc1ccccc1)C(=O)NC(CC1CCNC1=O)C(=O)C(=O)NC1CC1` (centres unmarked) has a CC50 of greater than 250 µM (5 (unit not given)).
`CC(C)C(=O)OC[C@H]1O[C@@](C#N)(n2ccc(N)nc2=O)[C@H](O)[C@@H]1O` gave a CC50 of greater than 100 µM (cell growth or viability).
For `Nc1nc(Nc2ccc(Cl)cc2)nn1S(=O)(=O)c1ccc2ccccc2c1`, the CC50 was 6.2 µM.
`Nc1c2c(nc3sc4c(c13)CCCCC4)CCCC2` gave an IC50 of greater than 10 µM (cell growth or viability, ATP luminescence; 72 h).

For quick reference, copied from above:
For `O=C(N[C@@H](Cc1ccccc1)C(=O)N[C@@H](C[C@@H]1CCNC1=O)C(O)S(=O)(=O)O)OCc1ccccc1` (some centres unmarked), the CC50 was 108 ± 10.4 µM (5 (unit not given)).
